Experimental data collected from several papers.
Lines come from different studies, so protocols differ. ± marks the error that the study gave.
Target: Albumin (ALB, Bos taurus, UniProt P02769)
UniProt P02769, sequence (whole entry, looked up): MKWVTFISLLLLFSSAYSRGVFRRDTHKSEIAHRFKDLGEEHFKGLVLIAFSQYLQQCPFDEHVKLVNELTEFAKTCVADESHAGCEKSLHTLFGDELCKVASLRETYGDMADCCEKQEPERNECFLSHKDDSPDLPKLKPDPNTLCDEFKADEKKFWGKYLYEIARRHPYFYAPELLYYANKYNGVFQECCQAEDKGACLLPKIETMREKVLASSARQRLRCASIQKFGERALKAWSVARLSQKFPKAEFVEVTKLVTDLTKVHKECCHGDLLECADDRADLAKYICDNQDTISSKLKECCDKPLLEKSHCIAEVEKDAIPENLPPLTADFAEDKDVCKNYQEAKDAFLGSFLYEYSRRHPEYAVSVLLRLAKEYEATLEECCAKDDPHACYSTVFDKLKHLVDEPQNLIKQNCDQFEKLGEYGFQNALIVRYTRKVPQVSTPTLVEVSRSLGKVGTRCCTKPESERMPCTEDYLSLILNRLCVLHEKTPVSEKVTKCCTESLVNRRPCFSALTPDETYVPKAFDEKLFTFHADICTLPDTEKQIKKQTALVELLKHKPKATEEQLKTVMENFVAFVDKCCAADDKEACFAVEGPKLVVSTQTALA

C#CC(=O)c1ccc(-c2c([Si](C)(C)C)c3ccccc3c3ccc4ccccc4[n+]23)cc1 — conversion (LC-MS; 16 h, pH 7.4, 25 °C, covalent modification of Cys34): 80%
Cc1ccc(C(C)C)cc1.O=C([N-]c1nc2ccccc2s1)c1cnccn1.[Cl-].[Ru+2] — number of binding sites (tryptophan fluorescence quenching; concentration not given): 0.71
Cc1ccc(C(C)C)cc1.[Cl-].[Cl][Ru+].[Ru+].c1ccc(-c2cn(CCCCOc3ccccc3-c3nc4ccccc4s3)nn2)nc1 — quenching rate constant (tryptophan fluorescence quenching): 1.3e+13 M⁻¹ s⁻¹
CC1=[N+]2N=C(c3ccccc3)[O][Pd-2]2([Cl])[O+]=C2Oc3ccccc3C=C21 (stereo not drawn) — fluorescence quenching (fluorescence titration; 345 nm): 69.4%
COC(=O)c1cnc(-c2cnccn2)cc1C(=O)OC.COC(=O)c1cnc(-c2cnccn2)cc1C(=O)OC.O.O.O.O=S(=O)([O-])C(F)(F)F.O=S(=O)([O-])C(F)(F)F.[Cu+2] — fluorescence quenching (fluorescence emission; emission 365.0 nm): 84.4%
CCCCCCCCCCCCCC(=O)Nc1ccccc1SSc1ccccc1NC(=O)CCCCCCCCCCCCC — Gibbs free energy change (binding, fluorescence quenching; 308 K): -7.25 kcal/mol
O=C(O[C@@H]1Cc2c(O)cc(O)cc2O[C@@H]1c1cc(O)c(O)c(O)c1)c1cc(O)c(O)c(O)c1 — induced CD amplitude (binding, circular dichroism; 200 µM, pH 7.4, at 320 nm, together with: BSA 30 µM): ~-0.4 mdeg
CCN(CC)c1ccc2c(c1)[O][Pt-2]1([Cl])[N+](=C2)CC[NH+]1c1ccccc1 (stereo not drawn) — binding free energy (binding to BSA): -7.74 kcal/mol
Cc1ccc2ccc3ccc(C)nc3c2n1.Cc1ccc2ccc3ccc(C)nc3c2n1.O.[Cl-].[Cl-].[Cl-].[Yb+3] — ΔG° (fluorescence quenching; 295 K): -7.923 ± 0.00478 kcal/mol
CCOc1cccc2c1[O][Pt-2]1([Cl])[N+](=C2)CC[NH+]1c1ccccc1 (stereo not drawn) — binding free energy (binding to BSA): -10.5 kcal/mol
O=[N][Fe]1([N]=O)[S](CCO)[Fe]([N]=O)([N]=O)[S]1CCO — conversion to protein-bound form (EPR spin quantitation; PBS; pH 7.4): 50%
Cn1ccn(N=Cc2ccccc2SSc2ccccc2C=Nn2ccn(C)c2=S)c1=S — reaction completion time (adduct formation, optical absorption spectra; together with: BSA 40 µM): ≤ 2 h
Oc1ccc2c(c1)[O][Pt-2]1([Cl])[N+](=C2)CC[NH+]1c1ccccc1 (stereo not drawn) — binding free energy (binding to BSA): -8.44 kcal/mol
O=C([O-])CN(CCN(CC(=O)[O-])CC(=O)NCCc1c[nH]c2ccc(O)cc12)CCN(CC(=O)[O-])CC(=O)NCCc1c[nH]c2ccc(O)cc12.[Gd+3] — T1 shortening (binding; concentration not given, 1 h, 40 °C, together with: BSA, MPO, glucose oxidase, glucose): 63%
CCCCCCCCCCCCCCCC(=O)Nc1ccccc1SSc1ccccc1NC(=O)CCCCCCCCCCCCCCC — entropy change (binding, van't Hoff; concentration not given, 298-313 K): -272 J/mol/K
CC(=O)[O-].O.O.[O-]c1ccc(Br)cc1C=NCCN1CCOCC1.[Zn+2] — Gibbs free energy change (UV absorption titration): -5.92 kcal/mol
C#CC(=O)c1ccc(-c2c([Si](C)(C)C)c3ccccc3c3cc(-c4ccccc4)c4ccccc4[n+]23)cc1 — conversion (LC-MS; 16 h, pH 7.4, 25 °C, covalent modification of Cys34): 65%
CCCCCCCCCCCC(=O)Nc1ccccc1SSc1ccccc1NC(=O)CCCCCCCCCCC — entropy change (binding, van't Hoff; concentration not given, 298-313 K): -2000 J/mol/K
O=C([O-])CN1CCN(CC(=O)[O-])CCN(C(CCC(=O)NC(Cc2c[nH]c3ccc(O)cc23)C(=O)NCCc2c[nH]c3ccc(O)cc23)C(=O)O)CCN(CC(=O)[O-])CC1.[Gd+3] (stereo not drawn) — T1 shortening (binding; concentration not given, 1 h, 40 °C, together with: BSA, MPO, glucose oxidase, glucose): 121%
CCN(CC)c1ccc2c(c1)Oc1cc(N(CC)CC)ccc1C21c2ccccc2C(=O)N1N=Cc1c[c-]c(-c2ccccn2)cc1.Cc1c(C)c(-c2ccc(-c3ccccc3)cc2)[c-](C)c1C.[Cl-].[Ir+3] — number of binding sites (fluorescence quenching; bovine serum albumin; concentration not given, 298 K): 0.944
CN(C)c1ccc(/N=N/c2ccc(S(=O)(=O)O)cc2)cc1 — nonspecific binding coefficient (concentration not given, pH 7.5, 25 °C): 0.000938

Repeated from above:
CCOc1cccc2c1[O][Pt-2]1([Cl])[N+](=C2)CC[NH+]1c1ccccc1 (stereo not drawn) — binding free energy (binding to BSA): -10.5 kcal/mol
